Measured values pooled from the literature.
Numbered parts are unrelated; each lists some results of a single study. Several values in a cell are separate wells, animals, samples, runs or records.
Chain of UniProt P29317 (whole entry, looked up): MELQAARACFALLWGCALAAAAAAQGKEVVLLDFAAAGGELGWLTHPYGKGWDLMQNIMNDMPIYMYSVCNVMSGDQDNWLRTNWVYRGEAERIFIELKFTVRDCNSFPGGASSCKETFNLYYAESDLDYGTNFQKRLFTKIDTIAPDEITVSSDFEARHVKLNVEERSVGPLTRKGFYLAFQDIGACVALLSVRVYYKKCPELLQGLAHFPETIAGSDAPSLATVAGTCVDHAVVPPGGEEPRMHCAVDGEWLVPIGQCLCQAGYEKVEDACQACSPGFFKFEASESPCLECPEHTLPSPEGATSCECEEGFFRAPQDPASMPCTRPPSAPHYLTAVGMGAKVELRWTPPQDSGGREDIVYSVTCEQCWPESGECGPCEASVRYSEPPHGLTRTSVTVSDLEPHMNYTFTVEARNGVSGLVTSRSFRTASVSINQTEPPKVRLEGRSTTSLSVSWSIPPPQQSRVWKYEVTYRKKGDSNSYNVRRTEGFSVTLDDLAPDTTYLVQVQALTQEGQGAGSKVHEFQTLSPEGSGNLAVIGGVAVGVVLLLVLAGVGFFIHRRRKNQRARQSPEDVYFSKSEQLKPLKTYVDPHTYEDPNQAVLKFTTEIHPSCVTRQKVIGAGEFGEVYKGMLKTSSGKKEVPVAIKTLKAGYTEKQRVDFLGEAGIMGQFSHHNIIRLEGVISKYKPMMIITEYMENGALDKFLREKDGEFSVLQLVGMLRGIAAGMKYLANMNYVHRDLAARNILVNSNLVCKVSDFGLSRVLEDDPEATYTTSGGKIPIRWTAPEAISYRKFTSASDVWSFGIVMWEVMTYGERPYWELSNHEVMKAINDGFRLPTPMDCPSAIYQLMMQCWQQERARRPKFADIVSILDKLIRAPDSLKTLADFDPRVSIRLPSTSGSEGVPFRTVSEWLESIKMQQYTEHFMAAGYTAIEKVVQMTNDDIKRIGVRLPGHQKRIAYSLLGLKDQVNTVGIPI
Chain of UniProt P48730 (whole entry, looked up): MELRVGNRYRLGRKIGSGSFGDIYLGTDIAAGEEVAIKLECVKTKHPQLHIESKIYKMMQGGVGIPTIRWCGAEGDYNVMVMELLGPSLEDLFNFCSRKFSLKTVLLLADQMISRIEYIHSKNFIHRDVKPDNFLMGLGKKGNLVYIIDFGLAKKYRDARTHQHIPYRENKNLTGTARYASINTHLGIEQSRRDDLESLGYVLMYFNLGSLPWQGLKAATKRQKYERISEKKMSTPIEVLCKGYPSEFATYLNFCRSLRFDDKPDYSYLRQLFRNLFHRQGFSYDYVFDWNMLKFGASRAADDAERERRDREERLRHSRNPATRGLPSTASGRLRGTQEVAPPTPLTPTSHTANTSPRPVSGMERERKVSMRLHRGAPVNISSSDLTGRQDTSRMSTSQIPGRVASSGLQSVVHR
Chain of UniProt Q9H0K1 (whole entry, looked up): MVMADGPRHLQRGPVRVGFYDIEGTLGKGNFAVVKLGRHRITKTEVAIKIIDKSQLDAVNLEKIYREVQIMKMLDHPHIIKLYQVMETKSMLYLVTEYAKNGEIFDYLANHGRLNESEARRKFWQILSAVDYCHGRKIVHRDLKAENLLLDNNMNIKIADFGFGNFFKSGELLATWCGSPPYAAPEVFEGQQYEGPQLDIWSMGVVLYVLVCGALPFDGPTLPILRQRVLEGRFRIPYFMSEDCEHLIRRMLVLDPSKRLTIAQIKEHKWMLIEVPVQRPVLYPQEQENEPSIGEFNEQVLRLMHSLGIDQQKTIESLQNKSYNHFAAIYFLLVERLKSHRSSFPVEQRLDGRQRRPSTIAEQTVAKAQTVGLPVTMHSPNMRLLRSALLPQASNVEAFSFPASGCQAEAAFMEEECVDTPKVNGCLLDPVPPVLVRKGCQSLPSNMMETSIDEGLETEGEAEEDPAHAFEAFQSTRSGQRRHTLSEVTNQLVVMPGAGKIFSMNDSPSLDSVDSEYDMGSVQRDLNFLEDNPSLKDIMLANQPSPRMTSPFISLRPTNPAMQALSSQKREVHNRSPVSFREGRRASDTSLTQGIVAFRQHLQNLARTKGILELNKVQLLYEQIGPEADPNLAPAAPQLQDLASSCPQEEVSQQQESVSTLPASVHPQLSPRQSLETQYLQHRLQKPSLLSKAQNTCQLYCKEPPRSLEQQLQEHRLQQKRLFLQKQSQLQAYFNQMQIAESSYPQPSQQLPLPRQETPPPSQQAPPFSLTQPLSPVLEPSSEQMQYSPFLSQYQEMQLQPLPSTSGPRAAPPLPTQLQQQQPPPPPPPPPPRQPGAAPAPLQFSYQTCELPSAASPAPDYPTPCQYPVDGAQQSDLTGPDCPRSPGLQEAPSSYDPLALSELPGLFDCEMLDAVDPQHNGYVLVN
Chain of UniProt P49759 (whole entry, looked up): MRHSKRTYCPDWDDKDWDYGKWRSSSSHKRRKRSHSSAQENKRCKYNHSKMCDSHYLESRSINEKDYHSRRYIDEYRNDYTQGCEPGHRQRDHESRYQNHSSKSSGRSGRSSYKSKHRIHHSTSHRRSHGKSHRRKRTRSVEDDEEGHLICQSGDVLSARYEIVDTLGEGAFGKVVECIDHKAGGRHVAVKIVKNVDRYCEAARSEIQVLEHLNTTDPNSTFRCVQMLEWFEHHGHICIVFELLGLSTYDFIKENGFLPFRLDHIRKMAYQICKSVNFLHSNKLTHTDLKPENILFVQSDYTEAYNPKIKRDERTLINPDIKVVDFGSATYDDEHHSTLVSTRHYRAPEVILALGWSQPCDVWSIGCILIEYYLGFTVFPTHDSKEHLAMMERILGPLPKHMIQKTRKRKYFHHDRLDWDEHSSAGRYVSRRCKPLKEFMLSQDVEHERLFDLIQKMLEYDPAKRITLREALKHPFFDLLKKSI
Chain of UniProt P00519 (whole entry, looked up): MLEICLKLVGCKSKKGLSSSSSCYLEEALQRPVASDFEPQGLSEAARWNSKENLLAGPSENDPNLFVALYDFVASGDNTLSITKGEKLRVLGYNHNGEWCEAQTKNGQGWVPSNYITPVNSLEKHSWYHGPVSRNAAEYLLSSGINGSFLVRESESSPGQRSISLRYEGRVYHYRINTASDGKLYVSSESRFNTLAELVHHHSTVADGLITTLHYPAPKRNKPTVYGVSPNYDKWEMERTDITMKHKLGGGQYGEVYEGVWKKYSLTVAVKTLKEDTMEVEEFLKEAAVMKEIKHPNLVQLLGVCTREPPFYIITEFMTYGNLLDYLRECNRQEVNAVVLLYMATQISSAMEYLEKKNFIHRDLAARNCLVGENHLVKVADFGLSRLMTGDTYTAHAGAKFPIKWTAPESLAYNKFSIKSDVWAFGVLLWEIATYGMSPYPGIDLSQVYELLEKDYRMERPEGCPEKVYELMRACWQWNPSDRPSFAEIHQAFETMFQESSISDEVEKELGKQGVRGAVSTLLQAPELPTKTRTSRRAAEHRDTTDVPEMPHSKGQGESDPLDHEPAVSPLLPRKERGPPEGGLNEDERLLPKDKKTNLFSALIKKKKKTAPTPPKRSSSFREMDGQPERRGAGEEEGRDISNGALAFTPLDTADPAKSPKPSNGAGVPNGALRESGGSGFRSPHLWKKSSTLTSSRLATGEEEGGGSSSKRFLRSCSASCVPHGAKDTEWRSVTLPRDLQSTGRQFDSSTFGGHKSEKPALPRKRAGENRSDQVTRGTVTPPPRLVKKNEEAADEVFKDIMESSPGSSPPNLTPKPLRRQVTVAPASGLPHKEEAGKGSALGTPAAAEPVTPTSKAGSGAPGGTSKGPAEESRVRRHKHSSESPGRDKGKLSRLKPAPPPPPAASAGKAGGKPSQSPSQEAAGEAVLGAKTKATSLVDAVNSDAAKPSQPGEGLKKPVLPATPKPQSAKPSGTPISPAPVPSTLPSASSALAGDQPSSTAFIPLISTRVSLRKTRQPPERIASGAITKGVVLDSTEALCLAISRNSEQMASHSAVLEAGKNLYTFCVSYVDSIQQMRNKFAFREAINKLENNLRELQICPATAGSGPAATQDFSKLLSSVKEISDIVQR
Chain of UniProt Q14680 (whole entry, looked up): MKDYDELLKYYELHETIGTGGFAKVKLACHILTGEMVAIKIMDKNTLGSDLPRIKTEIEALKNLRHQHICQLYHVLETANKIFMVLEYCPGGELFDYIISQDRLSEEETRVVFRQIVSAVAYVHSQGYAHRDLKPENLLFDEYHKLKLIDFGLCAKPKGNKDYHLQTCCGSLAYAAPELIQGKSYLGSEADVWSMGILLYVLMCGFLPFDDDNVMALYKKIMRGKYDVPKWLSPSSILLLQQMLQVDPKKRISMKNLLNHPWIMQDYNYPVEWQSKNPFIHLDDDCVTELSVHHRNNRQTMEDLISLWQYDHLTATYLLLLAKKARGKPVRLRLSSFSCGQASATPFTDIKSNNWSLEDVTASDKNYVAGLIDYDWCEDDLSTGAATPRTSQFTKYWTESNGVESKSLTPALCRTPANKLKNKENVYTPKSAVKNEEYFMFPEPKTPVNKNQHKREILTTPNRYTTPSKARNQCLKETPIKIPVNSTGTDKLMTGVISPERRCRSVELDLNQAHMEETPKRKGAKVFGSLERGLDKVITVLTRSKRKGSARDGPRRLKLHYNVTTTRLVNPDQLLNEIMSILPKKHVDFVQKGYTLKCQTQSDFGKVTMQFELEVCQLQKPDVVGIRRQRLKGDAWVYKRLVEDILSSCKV
Chain of UniProt Q86UX6 (whole entry, looked up): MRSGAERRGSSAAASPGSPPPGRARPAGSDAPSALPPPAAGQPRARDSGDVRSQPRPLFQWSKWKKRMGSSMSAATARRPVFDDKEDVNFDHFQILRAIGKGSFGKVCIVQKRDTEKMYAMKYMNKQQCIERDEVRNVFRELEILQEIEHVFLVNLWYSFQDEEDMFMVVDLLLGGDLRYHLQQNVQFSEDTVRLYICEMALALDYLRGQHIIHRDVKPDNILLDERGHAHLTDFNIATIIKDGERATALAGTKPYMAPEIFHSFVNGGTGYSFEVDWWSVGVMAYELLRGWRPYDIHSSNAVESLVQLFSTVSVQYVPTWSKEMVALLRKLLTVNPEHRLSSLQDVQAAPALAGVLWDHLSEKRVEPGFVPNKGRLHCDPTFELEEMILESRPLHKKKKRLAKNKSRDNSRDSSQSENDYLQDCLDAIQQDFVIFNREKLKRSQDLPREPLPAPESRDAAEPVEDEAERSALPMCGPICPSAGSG

Series 1 — effect on: enzyme activity; mode: inhibitor; tested at: 0.5 µM; reference: control
SMILES: C[C@@H](N)[C@H]1CC[C@H](C(=O)Nc2ccncc2)CC1
It gave 92.6% for remaining activity (Casein kinase I isoform delta (CSNK1D, Homo sapiens, UniProt P48730)).
Casein kinase I isoform epsilon (CSNK1E, Homo sapiens, UniProt P49674) — remaining activity: 92%.
Serine/threonine-protein kinase Sgk2 (SGK2, Homo sapiens, UniProt Q9HBY8) — remaining activity: 103%.
For Tyrosine-protein kinase Tec (TEC, Homo sapiens, UniProt P42680): remaining activity read 98.7%.
SRSF protein kinase 1 (SRPK1, Homo sapiens, UniProt Q96SB4) — remaining activity: 99%.
It gave 93.5% for remaining activity (Protein kinase C theta type (PRKCQ, Homo sapiens, UniProt Q04759)).
It gave 96.9% for remaining activity (Serine/threonine-protein kinase SIK2 (SIK2, Homo sapiens, UniProt Q9H0K1)).
It gave 91.1% for remaining activity (Dual specificity protein kinase CLK1 (CLK1, Homo sapiens, UniProt P49759)).
Cyclin-dependent kinase 2, with cyclin E (CDK2, Homo sapiens, UniProt P24941) — remaining activity: 95.2%.
The remaining activity was 97.9% (Tyrosine-protein kinase receptor TYRO3 (TYRO3, Homo sapiens, UniProt Q06418)).
It gave 86.8% for remaining activity (Muscle, skeletal receptor tyrosine-protein kinase (MUSK, Homo sapiens, UniProt O15146)).
The remaining activity was 93.3% (Serine/threonine-protein kinase PAK 1 (PAK1, Homo sapiens, UniProt Q13153)).
Ephrin type-A receptor 2 (EPHA2, Homo sapiens, UniProt P29317) — remaining activity: 104%.
For Ephrin type-A receptor 6 (EPHA6, Homo sapiens, UniProt Q9UF33): remaining activity read 90.5%.
It gave 108% for remaining activity (Tyrosine-protein kinase JAK1 (JAK1, Homo sapiens, UniProt P23458)).
It gave 105% for remaining activity (Calcium/calmodulin-dependent protein kinase type 1 (CAMK1, Homo sapiens, UniProt Q14012)).
The remaining activity was 90.1% (Vascular endothelial growth factor receptor 1 (FLT1, Homo sapiens, UniProt P17948)).
Insulin-like growth factor 1 receptor (IGF1R, Homo sapiens, UniProt P08069) — remaining activity: 75.5%.

Series 2 — cell line: A-375; tested at: 100 µM; time: 36 h
With CC(=O)OCC(=O)[C@@]12OC(C)(C)O[C@@H]1C[C@H]1[C@@H]3C[C@H](F)C4=CC(=O)C=C[C@]4(C)[C@@]3(F)[C@@H](O)C[C@@]12C the viability was 81.2%.
N[C@@H](Cc1cc(I)c(Oc2cc(I)c(O)c(I)c2)c(I)c1)C(=O)O gave a viability of 97.5%.
The viability of Cc1ncc(C[n+]2csc(CCO)c2C)c(N)n1 is reported as 89.5%.
For CC#CCn1c(N2CCC[C@@H](N)C2)nc2c1c(=O)n(Cc1nc(C)c3ccccc3n1)c(=O)n2C, the viability was 21.6%.
With CC[C@H](C)[C@H](N)C1=N[C@H](C(=O)N[C@@H](CC(C)C)C(=O)N[C@H](CCC(=O)O)C(=O)N[C@H](C(=O)N[C@H]2CCCCNC(=O)[C@H](CC(N)=O)NC(=O)[C@@H](CC(=O)O)NC(=O)[C@H](Cc3cnc[nH]3)NC(=O)[C@@H](Cc3ccccc3)NC(=O)[C@H]([C@@H](C)CC)NC(=O)[C@@H](CCCN)NC2=O)[C@@H](C)CC)CS1 the viability was 83.9%.
The viability of C=CC(=O)N1CCC[C@@H](n2nc(-c3ccc(Oc4ccccc4)cc3)c3c(N)ncnc32)C1 is reported as -0.0115%.
For O=C(CCCCCCNC(=O)c1cnc(N(c2ccccc2)c2ccccc2)nc1)NO, the viability was 6.34%.
The viability of O=C(CS(=O)(=O)Cc1ccccc1)N1CCOCC1 is reported as 111%.
For COc1ccc2[nH]c(SCc3ncc(C)c(OC)c3C)nc2c1, the viability was 74.7%.
CC(=O)/N=c1/sc(S(N)(=O)=O)nn1C gave a viability of 108%.
C#C[C@]1(O)CC[C@H]2[C@@H]3CCC4=C(CCC(=O)C4)[C@H]3CC[C@@]21C gave a viability of 14.8%.
With O=C(c1ccc(OCCN2CCCCC2)cc1)c1c(-c2ccc(O)cc2)sc2cc(O)ccc12 the viability was 0.0768%.

Series 3 — method: competition with immobilised ligand; tested at: 1 µM
SMILES: Cc1c(C(=O)O)cc(-c2ccc(C3CCNCC3)cc2)c2ccc(-c3ccc(C(F)(F)F)cc3)cc12
For Serine/threonine-protein kinase DCLK3 (DCLK3, Homo sapiens, UniProt Q9C098); binding: remaining binding read 100%.
Serine/threonine-protein kinase MAK (MAK, Homo sapiens, UniProt P20794); binding — remaining binding: 91%.
It gave 85% for remaining binding (Tyrosine-protein kinase ABL1, non-phosphorylated (ABL1, Homo sapiens, UniProt P00519); binding).
For Uncharacterized serine/threonine-protein kinase SBK3 (SBK3, Homo sapiens, UniProt P0C264); binding: remaining binding read 80%.
For Ephrin type-A receptor 2 (EPHA2, Homo sapiens, UniProt P29317); cell-free assay: remaining binding read 100%.
It gave 100% for remaining binding (Maternal embryonic leucine zipper kinase (MELK, Homo sapiens, UniProt Q14680); binding).
For Serine/threonine-protein kinase PRP4 homolog (PRPF4B, Homo sapiens, UniProt Q13523); cell-free assay: remaining binding read 100%.
Hormonally up-regulated neu tumor-associated kinase (HUNK, Homo sapiens, UniProt P57058); binding — remaining binding: 100%.
For Myosin light chain kinase (MYLK3, Homo sapiens, UniProt Q32MK0); binding: remaining binding read 94%.
It gave 100% for remaining binding (Phosphatidylinositol 4,5-bisphosphate 3-kinase catalytic subunit alpha isoform (PIK3CA, Homo sapiens, UniProt P42336, E545A); cell-free assay).
Rhodopsin kinase GRK1 (GRK1, Homo sapiens, UniProt Q15835); binding — remaining binding: 100%.
The remaining binding was 100% (Cyclin-dependent kinase 11B (CDK11B, Homo sapiens, UniProt P21127); cell-free assay).
It gave 100% for remaining binding (Serine/threonine-protein kinase 32C (STK32C, Homo sapiens, UniProt Q86UX6); binding).
The remaining binding was 100% (Tyrosine-protein kinase Fes/Fps (FES, Homo sapiens, UniProt P07332); cell-free assay).

Other studies, line by line
COc1ccc(-c2c(Nc3ccccn3)[nH]c3c(C4=CCCCC4)c(-c4ccccc4)nn3c2=O)cc1 has a dose-normalised AUC(0-t) of 1170 ng·h/mL/mg and 1210 ng·h/mL/mg and 1270 ng·h/mL/mg (human, plasma; oral, 200 mg twice daily).
